Results of several laboratories.
Each line is one published result; not all experiments were run side by side. Several values in a cell are separate wells, animals, samples, runs or records. ± gives the spread as reported. Values after ≈ are worked out from the molar mass of the structure shown.

`Cc1ccc(CNC(=O)C(=O)c2c(C)nc3ccc(C)cn23)cc1` gave an MIC of 53.7 µM (Mycobacterium kansasii; microbial growth; 6 days).
`CC(C)(C)C(=O)OCOP(=O)(OCOC(=O)C(C)(C)C)C1CCCN(O)C1=O` (stereo not shown) has a log TGI of -4.75 log M (T47D).
The MIC of `CN[C@@H]1[C@H](O)[C@H](NC)[C@H]2O[C@]3(O)[C@H](O[C@@H]2[C@H]1O)O[C@H](C)C[C@H]3NC(=O)Cc1cc(Cl)ccn1` is reported as over 200 µg/mL (Proteus vulgaris; microbial growth, broth dilution; ATCC33420).
With `O=C(NNc1ccccc1)c1nnc(C23CC4CC(CC(C4)C2)C3)o1` the inhibition was 44.3% (Pyricularia grisea; microbial growth; 50 µg/mL).
With `CCc1ccn2c(C(=O)NCc3ccc(C)cc3)c(C)nc2c1` the MIC was 6.1 µM (Mycobacterium kansasii; microbial growth; 6 days).
`CCN(CC)CCO.O=C(O)C(Cl)Cl` has a herbicidal inhibition of 0% (Eleusine indica; 15 mg/mL, 21 days, pre-emergence, greenhouse).
`Cc1ccc(CNC(=O)Cc2c(C)nc3ccc(C)cn23)cc1` has an MIC of over 50 µM (Mycobacteroides abscessus; ATCC 19977; 72 h).
`COc1ccccc1-c1n[nH]c2nc(N[C@H]3CC[C@H](NS(=O)(=O)CC(C)C)CC3)ncc12`: “relative captured amount” 0.92 (LINJ.27.0510; bead competition pull-down; Leishmania extract; 1.25 µM; baseline: vehicle).
`CC[C@H](C)[C@H](NC(=O)[C@H](CO)NC(=O)[C@H](Cc1ccc(O)cc1)NC(=O)[C@H](Cc1ccc(O)cc1)NC(=O)[C@H](CC(N)=O)NC(=O)CNC(=O)[C@H](CO)NC(=O)[C@H](Cc1ccc(O)cc1)NC(=O)[C@H](CO)NC(=O)[C@H](CO)NC(=O)[C@H](CC(N)=O)NC(=O)COCCOCCNC(=O)CN1CCN(CC(=O)O)CCN(CC(=O)O)CCN(CC(=O)O)CC1)C(=O)N[C@@H](CC(C)C)C(N)=O` [copper-64 labelled] has a tumour uptake of 25.6 %ID/mL (dynamic PET; KPC mouse, pancreatic cancer model, blood; intravenous, 1.1 min, 49 days after tamoxifen).
The MIC of `CN[C@@H]1[C@H](O)[C@H](NC)[C@H]2O[C@]3(O)[C@H](O[C@@H]2[C@H]1O)O[C@H](C)C[C@H]3NC(=O)Cc1ccccn1` is reported as 50 µg/mL (Streptococcus pyogenes; microbial growth, broth dilution; ATCC700294).
`O=C(NNc1ccc(Cl)cc1)c1nnc(CC23CC4CC(CC(C4)C2)C3)o1` gave an EC50 of 0.77 ± 0.04 µg/mL (≈ 1.99 µM) (Fusarium graminearum; fungal growth, inhibitor).
`O=C1NC2(CC2)COc2ncc(F)cc2[C@H]2COCCN2c2ccn3ncc1c3n2` gave a total cholesterol of 2.12 ± 0.55 mmol/L (Sprague-Dawley rat, female, serum; oral, 10 mg/kg/day, 4 weeks daily, end of treatment).
`Cc1ccc2nc(C)c(CC(=O)NCc3ccc(N(C)C)cc3)n2c1` has an MIC of 49.9 µM (Mycobacterium kansasii; microbial growth; 6 days).
For `CN[C@@H]1[C@H](O)[C@H](NC)[C@H]2O[C@]3(O)[C@H](O[C@@H]2[C@H]1O)O[C@H](C)C[C@H]3NC(=O)CNC(C)(C)C`, the MIC was 100 µg/mL (Streptococcus pyogenes; microbial growth, broth dilution; ATCC700294).
`CON(C(=O)c1cn(C)nc1C(F)F)C(C)Cc1c(Cl)cc(Cl)cc1Cl` (stereo not shown) gave an EC50 of 0.136 µg/mL (≈ 0.319 µM) (Fusarium graminearum; mycelial growth; 12 h).
With `Cc1ccc2nc(C)c(C(=O)C(=O)NCc3ccccc3)n2c1` the MIC was 1.8 µM (Mycobacterium avium; microbial growth; 6 days).
`CN[C@@H]1[C@H](O)[C@H](NC)[C@H]2O[C@]3(O)[C@H](O[C@@H]2[C@H]1O)O[C@H](C)C[C@H]3NC(=O)Cc1ccc(F)cn1` has an MIC of 25 to 50 µg/mL (Mycobacterium avium; microbial growth; ATCC25291).
`Cc1cc(C(=O)Nc2nc3cccc(C)c3n2[C@H]2CCCCN(C(=O)/C=C/CN(C)C)C2)ccn1` has a survival of 67.9% and 56.9% and 56.5% and 46.2% (Trypanosoma brucei brucei; 2T1 CLK1 overexpressing; 1.25 µM, DMSO pretreated; baseline: maximum).
`Cc1cc(Oc2nc(N3CC[C@@H](c4ccncc4)C3)ncc2F)[nH]n1` gave a normalised growth of 68% and 65% and 73% (Mycobacterium tuberculosis; OD; H37Rv PurF CRISPRi knockdown; 0.003906 µM, added: anhydrotetracycline low).
`CN[C@@H]1[C@H](O)[C@H](NC)[C@H]2O[C@]3(O)[C@H](O[C@@H]2[C@H]1O)O[C@H](C)C[C@H]3NC(=O)Cc1cscn1` gave an MIC of 50 µg/mL (Mycobacteroides abscessus; microbial growth; ATCC19977).
`COc1ccccc1-c1n[nH]c2nc(NC3CCN(C(=O)Cc4ccc(F)cc4F)CC3)ncc12` — result for “relative captured amount”: 0.78 (CRK3 LINJ.36.0600; bead competition pull-down; Leishmania donovani extract; 10 µM; baseline: vehicle).
The inhibition of `CC(C)CC(C(=O)N1CC2(CC1C#N)C(=O)Nc1ccccc12)N(C)C(=O)c1cc2c(F)cc(F)c(F)c2[nH]1` (stereo not shown) is reported as 0% (Human coronavirus 229E; cytopathic effect; MRC5; 39 pM).

Repeated from above:
`O=C1NC2(CC2)COc2ncc(F)cc2[C@H]2COCCN2c2ccn3ncc1c3n2` gave a total cholesterol of 2.12 ± 0.55 mmol/L (Sprague-Dawley rat, female, serum; oral, 10 mg/kg/day, 4 weeks daily, end of treatment).
The MIC of `CN[C@@H]1[C@H](O)[C@H](NC)[C@H]2O[C@]3(O)[C@H](O[C@@H]2[C@H]1O)O[C@H](C)C[C@H]3NC(=O)Cc1ccccn1` is reported as 50 µg/mL (Streptococcus pyogenes; microbial growth, broth dilution; ATCC700294).
